# Measurements collected from several papers.
# ± marks the error that the study gave.
# Target: Cytochrome P450 3A5 (CYP3A5, Homo sapiens, UniProt P20815)
# Sequence of UniProt P20815 (whole entry, looked up): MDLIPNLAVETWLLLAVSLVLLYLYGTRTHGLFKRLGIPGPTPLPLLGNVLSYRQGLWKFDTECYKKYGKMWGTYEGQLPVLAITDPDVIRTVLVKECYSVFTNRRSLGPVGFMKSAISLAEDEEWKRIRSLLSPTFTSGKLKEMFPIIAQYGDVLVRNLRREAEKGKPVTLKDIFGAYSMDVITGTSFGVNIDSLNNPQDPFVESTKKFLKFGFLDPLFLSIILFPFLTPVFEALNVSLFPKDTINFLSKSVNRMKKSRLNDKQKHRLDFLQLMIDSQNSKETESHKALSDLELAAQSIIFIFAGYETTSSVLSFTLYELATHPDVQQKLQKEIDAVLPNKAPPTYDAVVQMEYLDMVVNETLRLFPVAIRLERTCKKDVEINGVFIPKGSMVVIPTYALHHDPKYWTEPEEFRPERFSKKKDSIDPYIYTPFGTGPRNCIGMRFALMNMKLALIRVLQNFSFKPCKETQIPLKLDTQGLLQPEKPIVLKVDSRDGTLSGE
test,test system,conditions,endpoint,result,SMILES
substrate depletion,recombinant human CYP,1 µM,intrinsic clearance,0.72 µL/min/pmol,C=CC(=O)Nc1cc(Nc2nccc(-c3cn(C)c4ccccc34)n2)c(OCC(F)(F)F)nc1N(C)CCN(C)C
substrate,recombinant enzyme,"1 µM, 60 min",remaining compound,34 ± 3.8%,C[C@H]1CN(C2COC2)CCN1c1ccc(Nc2cc(-c3ccnc(N4CCn5c(cc6c5CC(C)(C)C6)C4=O)c3CO)cn(C)c2=O)nc1
"substrate, recombinant enzyme",,,fraction metabolized,0.25%,C=CC(=O)Nc1cc(Nc2nccc(-c3cn(C)c4ccccc34)n2)c(OCC(F)(F)F)nc1N(C)CCNC
,,scaled to HLM abundance,fraction metabolised by CYP3A5,33%,CC[C@H](C)[C@@H]([C@@H](CC(=O)N1CCC[C@H]1[C@H](OC)[C@@H](C)C(=O)N[C@@H](Cc1ccccc1)C(=O)NCCCO)OC)N(C)C(=O)[C@@H](NC(=O)[C@H](C(C)C)N(C)C)C(C)C
ISEF abundance scaling,,"2 µM, pH 7.4",fraction metabolised,< 1%,N#C[C@H](C[C@@H]1CCCNC1=O)NC(=O)[C@H](CC1CC1)NC(=O)c1cc2cccc(Cl)c2[nH]1
,recombinant human CYP,,fraction metabolised by CYP,0.8%,C=CC(=O)N(C)CCOc1c(N)ncnc1-c1cc(F)cc(NC(=O)c2ccc(C3CC3)cc2F)c1C
,recombinant human CYP3A5,0 and 30 min,CLint,0.115 µL/min/pmol,Cc1cc(C)c(CNC(=O)c2cc(Cl)c3c(c2C)O[C@@](C)([C@H]2CC[C@H](N(C)C)CC2)O3)c(=O)[nH]1
"recombinant CYP, average",phosphate buffer,pH 7.4,CYP contribution,3.64%,C[C@@H](Oc1ccc(S(C)(=O)=O)cc1C(=O)N1C[C@@H]2C[C@]2(c2cc(C(F)(F)F)on2)C1)C(F)(F)F

# Excerpt of the above:
test,test system,conditions,endpoint,result,SMILES
,,scaled to HLM abundance,fraction metabolised by CYP3A5,33%,CC[C@H](C)[C@@H]([C@@H](CC(=O)N1CCC[C@H]1[C@H](OC)[C@@H](C)C(=O)N[C@@H](Cc1ccccc1)C(=O)NCCCO)OC)N(C)C(=O)[C@@H](NC(=O)[C@H](C(C)C)N(C)C)C(C)C
